{"data": "Published values from different studies", "EGFR del752-759": "Epidermal growth factor receptor (EGFR, Homo sapiens, UniProt P00533, del752-759)", "EGFR": "Epidermal growth factor receptor (EGFR, Homo sapiens, UniProt P00533)", "EGFR L858R/T790M": "Epidermal growth factor receptor (EGFR, Homo sapiens, UniProt P00533, L858R/T790M)", "note": "Protocols differ between the studies behind these lines."}
{"Compound": "CNC(=O)C1CCN(c2cc(C)c(F)cc2NC(=O)c2ccc(-c3cc(O)ccc3C)c(C)c2)CC1", "target": "EGFR del752-759", "observed": "binding", "technique": "competition with immobilised ligand", "tested at": "1 µM", "remaining binding [%]": 63}
{"Compound": "CNC1C[S+]2CC[S+]3CC[S+](C1)[Ru-4]321([N]=C=S)[n]2c3ccc(OC)cc3c3c4c(c5cc(F)c[n+]1c5c32)C(=O)NC4=O (stereo not shown)", "target": "Epidermal growth factor receptor (EGFR, Homo sapiens, UniProt P00533, G719S)", "technique": "KinomeScan", "tested at": "0.1 µM", "baseline": "untreated", "remaining binding [%]": 100}
{"Compound": "Cc1ccc(-c2c(/C=C(\\C#N)C(=O)NC(C)C)n(CCCO)c3ncnc(N)c23)cc1", "target": "Epidermal growth factor receptor (EGFR, Homo sapiens, UniProt P00533, del746-750)", "observed": "cell-free assay", "technique": "competition with immobilised ligand", "tested at": "1 µM", "remaining binding [%]": 88}
{"Compound": "COc1c(Cl)cccc1Nc1c(-c2ccncc2C#C[C@@]2(C)CCCN2C(=O)/C=C/CN(C)C)[nH]c2c1C(=O)NCC2", "target": "Epidermal growth factor receptor (EGFR, Homo sapiens, UniProt P00533, T790M)", "observed": "cell-free assay", "technique": "competition with immobilised ligand", "tested at": "3 µM", "remaining binding [%]": 0.6}
{"Compound": "CC(C)=CC1OC(C)(C)C2C=C3C(=O)C(Cl)=CC(O)C3C3C(O)C4OC4C(=O)C132 (stereo not shown)", "target": "EGFR", "observed": "cell-free assay", "technique": "competition with immobilised ligand", "tested at": "10 µM", "remaining binding [%]": 86}
{"Compound": "Nc1ncc2c(n1)-c1c([nH]c3ccc(C4=CCOCC4)cc13)CCC2", "target": "EGFR L858R/T790M", "observed": "binding", "technique": "competition with immobilised ligand", "tested at": "1 µM", "remaining binding [%]": 68}
{"Compound": "C=CC(=O)N1CCc2ccc(-n3c(=O)ccc4cnc5ccc(-c6cnn(C)c6)cc5c43)cc21", "target": "EGFR del752-759", "technique": "KINOMEscan", "tested at": "1 µM", "baseline": "DMSO control", "remaining binding [%]": 74}
{"Compound": "CCN1CCN(Cc2ccc(C(=O)Nc3ccc(C)c(NCc4cnc5[nH]ccc5c4OC)c3)cc2C(F)(F)F)CC1", "target": "Epidermal growth factor receptor (EGFR, Homo sapiens, UniProt P00533, G719C)", "observed": "binding", "technique": "competition with immobilised ligand", "tested at": "1 µM", "remaining binding [%]": 1.3}
{"Compound": "CCN1CCN(Cc2ccc(NC(=O)c3ccc(C)c(NC(=O)c4cncc(-c5cccs5)c4)c3)cc2C(F)(F)F)CC1", "target": "EGFR", "observed": "binding", "technique": "competition with immobilised ligand", "tested at": "1 µM", "remaining binding [%]": 1.1}
{"Compound": "C=CC(=O)N1CCCC(n2c(=O)c3ncccc3n(Cc3ccc(Oc4ccccc4)cc3)c2=O)C1 (stereo not shown)", "target": "EGFR L858R/T790M", "observed": "cell-free assay", "technique": "competition with immobilised ligand", "tested at": "1 µM", "remaining binding [%]": 89}
